{"data": "Measured values gathered from unrelated publications", "note": "Each line is one published result; not all experiments were run side by side."}
{"Compound": "Cc1ccc(C(=O)N(CCCN)C(c2nc3snc(C)c3c(=O)n2Cc2ccccc2)C(C)C)cc1 (stereo not shown)", "assay": "item: Pneumonia", "test system": "human patients", "conditions": "intravenous, dose not given, CTCAE grade ≥3, all doses", "quantity": "patients with adverse events", "result": "5%"}
{"Compound": "Cc1cc(C)c(CNC(=O)c2cc(Cl)c3c(c2C)O[C@@](C)([C@H]2CC[C@H](N(C)C)CC2)O3)c(=O)[nH]1", "assay": "item: Hypophosphatemia", "test system": "human patients", "conditions": "oral, 200 mg once daily, 1 day onset day 14", "quantity": "patients with grade ≥3 TEAE", "result": "0%"}
{"Compound": "CCn1cc(C(=O)N2CCOCC2)c(=O)c2cc(NC3Cc4ccccc4C3)cnc21", "test system": "human, GAD, PTSD or social anxiety disorder", "conditions": "dose not given, TEAE Dizziness, pooled phase trials", "quantity": "patients with adverse event", "result": "3.5%"}
{"Compound": "CNC(=O)c1ccc(-c2cnc3ncc(Cc4ccc5ncccc5c4)n3n2)cc1F", "assay": "item: blood creatinine increased", "test system": "human, expansion cohort, gastric cancer", "conditions": "oral, 600 mg twice daily (RP2D), all grades, any causality, CTCAE v4.0", "quantity": "patients with adverse event", "result": "0%"}
{"Compound": "Cn1cnc2ccc(Nc3c(F)ccc(NS(=O)(=O)N4CC(F)C4)c3Cl)c(Cl)c2c1=O", "assay": "item: blurred vision, grade 1-2", "test system": "human patients", "conditions": "dose not given, monotherapy trial", "scale": "relative to: patients", "quantity": "patients with blurred vision", "result": "3%"}
{"Compound": "CNCc1ccc(-c2[nH]c3cc(F)cc4c3c2CCNC4=O)cc1", "assay": "item: Dizziness", "test system": "human patients", "conditions": "oral, dose not given, all grades, all doses", "quantity": "patients with adverse event", "result": "16.1%"}
{"Compound": "CCOc1c([C@H](C)n2nc(C)c3c(N)ncnc32)cc(Cl)c(F)c1[C@@H]1CNC(=O)C1", "test system": "human B-cell malignancy patients", "conditions": "oral, 30 mg once daily", "quantity": "patients with ΔQTcF 30-60 ms", "result": "3.8%"}
{"Compound": "O=C(NO)c1ccc(CN(c2cnccn2)c2cnccn2)cc1", "assay": "item: fatigue", "test system": "human", "conditions": "oral, dose not given, all dose cohorts, sample B patients", "quantity": "patients with adverse event", "result": "30%"}
{"Compound": "O=C(Nc1ccc(OC(F)(F)Cl)cc1)c1cnc(N2CC[C@@H](O)C2)c(-c2ccn[nH]2)c1", "assay": "item: Lipase increase, grade ≥3", "test system": "human patients, dose-finding study", "conditions": "oral, sample D of sample B patients", "quantity": "patients with event", "result": "18.2%"}
{"Compound": "CNC(=O)c1cc(Oc2ccc(NC(=O)Nc3cc(C(C)(C)C)nn3-c3ccc4ncccc4c3)c(F)c2)ccn1", "assay": "item: worst grade 1", "test system": "human", "conditions": "oral, dose not given, cycles 1 and 2, Medium Cmax subgroup", "quantity": "patients with visual abnormality AE", "result": "33%"}
{"note": "Excerpt of the above:"}
{"Compound": "CNCc1ccc(-c2[nH]c3cc(F)cc4c3c2CCNC4=O)cc1", "assay": "item: Dizziness", "test system": "human patients", "conditions": "oral, dose not given, all grades, all doses", "quantity": "patients with adverse event", "result": "16.1%"}
